Results gathered from unrelated publications.
Every numbered part comes from another study and shows a few of its results, in no order.

Sample 1
Target: RNA binding protein fox-1 homolog 2, RRM domain, GST-SBP tag (RBFOX2, Homo sapiens, UniProt O43251-10, residues 100-194)
Method: RNA Bind-n-Seq
Form: RNA
Medium: in vitro
Concentration: 365 nM
Notes: natural RNA segment, single round, ends assumed
Baseline: no-protein control
Reading: higher = stronger binding
Constant ends, left off below: GGGAGUUCUACAGUCCGACGAUC … UGGAAUUCUCGGGUGCCAA
Target sequence (chain): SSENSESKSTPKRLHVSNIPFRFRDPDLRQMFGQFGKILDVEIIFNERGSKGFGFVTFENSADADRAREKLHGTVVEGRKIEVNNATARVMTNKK
Oligonucleotide	RBNS enrichment (R)
AUCCCUUUUCCUGUCAGUGUUUUUGAAACCCACAGUUUUAGUUGGUGCUGAUGGAGGGAGGGGGAAGUCGAAGGAUGCUCUUUCCCUUUUCUGUUUAGGAAGAAGUGGUA	0.304
CUUCGGGGCUUAGGCCACCGCUCCCUGUCCCCAGAGGAGAUAGCCCCAGAUGGACUGGAAUGUUGUGGCAUGAGAGCGCAUGUGUGCGAUGGCCCCGCUGUGGUCCCCUC	6.59
UGCUGUUUUCAAAUGAAGCCGUGUGGAUAUUUCAGCGUGCUGCUCCCUGUUGUCUGGAAACAGUUGAGUUGGAGCCUGUUGCCAAUGCUGCCCUCUGCCACCCUGUGGCU	0.613
CAAAUGUAGUGUGUUUCCCUAACUUUCUGUUUUUCCUGAGAAAAAAAAAUAAAUCUUUUAUUCAAAUCAGGGUGUGAUAUGGGUCUUUUCUCAUCGACGCCUCUUUUUCC	0.422
CCAGAGUAAACAUCAAUGCUCAGAGUUAGCAUAAUUUGGAGCUAUUCAGGAAUUGCAGAGAAAUGCAUUUUCACAGAAAUCAAGAUGUUAUUUUUGUAUACUAUAUCACU	0.334
AUAGUAAUUAAGAUAUAGCUUCAAAAAUGGCUUUGCUUUUGAUUUCUACUCAUAUUCGUAUGGCUCCAGAAAAAUAUUUUUUUCAUAUUUGACAAUGUCAGCUCCACUUU	0.431
AGGAUGACGGCUGCUCUGAUAUGGUGCUCUUCUGAGGUGGCAUAAGGGCUGGCCCUUAUUUGCUCUCCCUCCUUCGACUUGCAGAAAUUAAUUUAAUUAAUUAAUUUACU	0.444
GGGAGACUGGAUAUAGUAGUGCAUACCUAUAACUCCAGCACUUGGGACGUGGAGGUAGGUGGAUCACUGCAAGUUUGAGGCUAGCAUGGUCAAUAAAGAUAGUUCAAGGC	10.3
UCCCUACCCUCACAAAAGUGGCCACGUUGCAAUAAAAAUUGUGGCAGAUUACAGAAUGUUGCCUUGUUUUCCUUGGAAAUUUUGCAAAUUGUUAUGUGAAAUUUUAGGGU	0.958
UCUGGAAGGAUGCUCGAGAGAACAAAUGGAGGUGGUGAAAAUCAAGCUUUGGAUUGUGCAUUCCUAGGCACAAAAUUACCUCAUUCUUCCUAACAAGCAAUCUGGGACCU	0.279
GGCAUGGGUUUCGUCCAAAAAUCAUGAAUUUUUCUAAUUCUACUAUUUUACAACUUGCUGAGACACAAAUACUGUGCCCUUCCUGUCCUACUGACCACUGGGUAUGUAAU	0.514
UUUUUUUAAUGAUAACUUCUUUUCUGUUUAUUGUAAAACUAAGUUAAAAAUAAAAGGUUAAUGAGAAUGAUAUGGCUUUUAUUACUUGUUACUAUUAGCCCAUUGAUUAG	0.515

Sample 2
Target: Histone acetyltransferase KAT6A, winged helix 1, GST fusion (KAT6A, Homo sapiens, UniProt Q92794, residues 1-85)
Method: protein binding microarray
Form: double-stranded DNA, one strand shown
Medium: in vitro
Concentration: not given
Notes: 8-mer, flanks averaged, mean of 2 arrays, mostly near background
Baseline: not given
Reading: higher = stronger binding
Residues (chain): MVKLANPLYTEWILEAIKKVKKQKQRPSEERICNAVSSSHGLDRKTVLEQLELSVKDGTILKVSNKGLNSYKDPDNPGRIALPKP
Oligonucleotide	E-score
ATTAGTCG	-0.0988
AATGAACC	-0.147
GGCATCTA	-0.00384
AATTTACC	-0.0203
AGCAGTAG	-0.175
AGGCGTGC	0.252
GCATAAAA	-0.16
GCAGACCA	-0.014
GTGACGTA	-0.0268
CATTACAG	0.0352
CAGGAGCC	0.0179
CTAACGTC	-0.0467
GAATTGGC	-0.14
CTGGTTTC	-0.025
TTGGAAAA	-0.0858
ATTCACGA	-0.305
AGCAGTTA	-0.095
AAACCGCG	0.317
GCATGACA	-0.12
GAACTCAC	-0.188
ATGAGGCG	0.211
ACCCTCTA	-0.0512
GTGAGCAC	-0.091
CATGGGCA	-0.107
ACGCATCG	0.277

Sample 3
Target: Hepatocyte nuclear factor 3-alpha (Foxa1, Mus musculus, UniProt P35582, residues 1-468, full length assumed)
Method: EMSA with sequencing
Form: double-stranded DNA, one strand shown
Medium: in vitro
Concentration: 10 and 20 nM
Notes: whole designed probe, mean of two concentrations, ends assumed
Baseline: negative control set to 0
Reading: higher = stronger binding
Constant ends, left off below: GTGAGCGGTGCCCATTGATGGGGAAC … TTTCACTGGGATCGTGGGGAC
Residues (chain): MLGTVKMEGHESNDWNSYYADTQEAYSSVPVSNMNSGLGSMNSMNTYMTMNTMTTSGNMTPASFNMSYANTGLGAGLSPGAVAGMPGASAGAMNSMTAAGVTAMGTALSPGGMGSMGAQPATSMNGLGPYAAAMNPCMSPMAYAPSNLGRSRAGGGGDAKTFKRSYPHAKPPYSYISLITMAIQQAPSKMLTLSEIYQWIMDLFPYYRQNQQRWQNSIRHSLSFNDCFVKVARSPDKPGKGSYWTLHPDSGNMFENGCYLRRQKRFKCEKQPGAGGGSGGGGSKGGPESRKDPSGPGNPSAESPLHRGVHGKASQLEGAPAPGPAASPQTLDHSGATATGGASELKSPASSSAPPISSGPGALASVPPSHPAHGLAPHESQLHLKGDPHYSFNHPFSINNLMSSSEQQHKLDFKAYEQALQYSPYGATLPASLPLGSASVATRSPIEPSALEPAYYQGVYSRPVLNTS
Oligonucleotide	normalised bound fraction
GGGCCACCTTCCCTCCCTGCGCCAAGGCCTGATCGGACTGGGAGATAAACTGCACTGGCAGCTGTCCTGGCAGAGCTCTGAATCACTGCTGTGCAAACATGACCCTCCTTCACTGCGACTGCCAGCTTTGTTATCTAGAATGCAAACACAATGCAACCATCCTTAGCTCCAGATTAACAACAACAAAAACATC	0.383 ratio
AGGTTGTCTGGACAAAAGTTGTATCTACCAAACTAAATGTGTACCAAGTGAGATATCCAAGGTCACTTAGCAAACATTCTGTTAGGGATAATGTAAACATGAAAAGAAATTTAAGGATTTTTTTTTTTAAGACTGTTTTTGGAAACAACCAAGAGGAGAGACAAAAGGCACTTCAGTGAGGACTTTAAGCCAG	0.374 ratio
ATCCACGAACCTGGCCCTGTCTGGTAACCACAGTGAACCATCGCAAGATACAGCACTATAATGACTCACTGTGCCCAGTTGGGCTGGAACCAGTGTTGACACATCACATCCTCAGGGACACGGAAGTGTACTTGTTTTTGGAGAGGGACTAGACCTTCATCCTTGAGGTGAAGAAGATTTTCTCTCCAGGGTG	0.113 ratio
AACAGTAACATGGCAACAGCTTAAATAAATAAGACAGTACATTGTTTAAGAAACAACTAATGTTCTGAGGTTTCAGTGATAACAACCACAAAGTAATCTTGCAAGGTGGTAAGAAATACCTGGCATGAATGCCTTTTGTTAAAAGTTGAACCACAAGTGCATTTTTTTTTACACTCTACTGAAGTATTTTTGT	0.336 ratio
ATTTTATAAGACATCGAAGGAAAAAATGAAATTAGAATAAGCATTCTTTTGTTTTGTTTTGTTTAAGTAAGGAAAACAAAAATAGAAAGACAATGTAATCTTCAGTGGGGAAATGTAAGTATGAACACACGAGGAACCATCTGGGAAAGTGATCACAGGATATGATACAGCACATGAAAAAATACACAAATAG	0.24 ratio
TTAAAACACACCACCTACATATTTCACATGAGTGAACCAGGATGAATGAATGGATGTTTGCAAGCACCCCAGGGTCCAGGAGGTGAAGTTATGCAATCTTCAGTTGTTGTTATATCACCCTCTGCCCTTGGCTAAGGGCCAATATCAACAAGTTCTCTTTTTCCCATCTGCCTTAGAGTTTTCCATGAAGATT	0.0209 ratio
GAGGACAGAGGGGATAATTTTTCTGCCTACCATAACAATTACCCAAGTAATATACGCAAATGCACCCTGTAGATCACAAAGTATTATACGTATGTAAATAATTTCTATTAGAAAGAACAAGAAAATAATGGTTATGGTTTCACGGTTAATTAGCAGCAGAGCTCATCTCAGCCTCAGTTCTCATAATTACCTG	0.24 ratio
ATCTTCCCCCTCTTCCTTGCCCCACCAGCTCACCTTCCCGGGTTATTTGCACAAAGGAAAATAAATAAAGCCGGCATTCGTTAACCCTCTTCACGCGCATACTGCTGTTTGCTCTGCATGAATCATGGTCCTTACGCGACGCCAGGCTCCGGGAGAGCAAAGCACCGTGTCAGGCGCATGATCCGGGCTCGCC	0.376 ratio

Sample 4
Target: Centromere-binding protein 1, full length, N-terminal tag (CBF1, Saccharomyces cerevisiae, UniProt P17106, residues 1-351)
UniProt P17106, sequence (whole entry, looked up): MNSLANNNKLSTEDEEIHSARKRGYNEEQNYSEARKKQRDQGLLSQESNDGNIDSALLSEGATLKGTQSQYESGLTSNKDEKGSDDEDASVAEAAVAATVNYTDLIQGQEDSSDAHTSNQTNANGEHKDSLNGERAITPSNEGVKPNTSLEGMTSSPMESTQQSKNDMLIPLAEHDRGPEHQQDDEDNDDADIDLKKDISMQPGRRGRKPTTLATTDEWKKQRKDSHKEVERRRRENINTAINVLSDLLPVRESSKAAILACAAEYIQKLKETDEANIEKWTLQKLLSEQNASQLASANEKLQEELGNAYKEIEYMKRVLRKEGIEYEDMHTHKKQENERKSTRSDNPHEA
Method: protein-binding microarray
Form: double-stranded DNA, one strand shown
Medium: in vitro
Concentration: 0.8 µM
Notes: whole 60-bp probe, no competitor
Reading: higher = stronger binding
Constant ends, left off below: … GTCTTGATTCGCTTGACGCTGCTG
Oligonucleotide	fluorescence intensity [a.u.]
CCTAACTACTATATAAGCGTGCGATAGCTTCGTACA	517
GAAATTCAAGCCATTCACACCATGAGGAACGGATAG	504
CTATGTTGTTATATTCACGTGCCTGTTTGCTTTTTC	5450
CTATATCGAGTCTCCCACGAGGTTGACAAATAATTC	613
CTATTTGAATGTCGTTCGTCATCAGCGCGGCCATTC	514
GAAAAAAGGTCCGAAGACGTGTAAAGGATATATTAG	544
GAATATACAAATATACACGTTCGGTCAATTGCATAG	559
GAAACGAATATGGGAATCGTGATTAATTAAGTGTAG	733
GAAATTAATTATAATCACGTTGTTCCTTCCCAATAG	2300
GAAGAGTCACTCCCCCGTGTGTTCGGTCCGGCCTAG	549
CTACTTTGCCAACGTGTTGTCTTTGACGTACGTTTC	586
CCTAACTACTATATAAACGTGTAATAGCTTCGTACA	533
CTATCTTCTAGCGCTTTGATCACGTGCTCGGGCTTC	25000
GAACCTCTTACACCGCATGTGATATAATAGTAATAG	1580
GAAGGAGCCAGCCATGGCATCATGCGCTACCGCTAG	542
GAACCAAACGAAACCCCCGTGCTTCTGTTTCTCTAG	682
CTAATAAATGTGCGTCACGTGGCCTTGTGTCTCTTC	14700
CTACTCCCAAATTCCCATCTGATGAACTGTTAGTTC	484

For quick reference, copied from above (sample 2):
Oligonucleotide	E-score
CTAACGTC	-0.0467
AGCAGTAG	-0.175
GCATGACA	-0.12
ACCCTCTA	-0.0512
AATGAACC	-0.147
GAATTGGC	-0.14
AGCAGTTA	-0.095
AAACCGCG	0.317
CATTACAG	0.0352
